Experimental data gathered from unrelated publications.
Protocols differ between the studies behind these lines. Several values in a cell are separate wells, animals, samples, runs or records. ± gives the spread as reported.

Structure (SMILES)	target or system	assay	system	setting	how to read	quantity	result
CC(C)c1c(C(=O)Nc2ccccc2)c(-c2ccccc2)c(-c2ccc(F)cc2)n1CC[C@@H](O)C[C@@H](O)CC(=O)O		ELISA	cynomolgus monkey, female, plasma	40 mg/kg or 25 mg/kg, day 176	baseline: pretreatment	plasma PCSK9 change	8.4%
OC(CCN1CCCCC1)(c1ccccc1)C1CC2C=CC1C2 (stereo not drawn)		resting-state EEG	healthy elderly humans	oral, 2 mg, eyes open, LS mean	baseline: baseline	change in EEG Beta3-power Fz-Cz	3.4%
COc1cc2cc(-c3ccc(CC(=O)Nc4cc(C(C)(C)C(F)(F)F)no4)cn3)cnc2cc1OC		RECIST v1.1	RET-altered advanced solid tumour patients	oral, 150 mg once daily, phase I		disease control rate	38%
CC(C)c1cccc2c(-c3ccccc3)cc(-c3ccc(-c4ccc(C(=O)O)cc4)[nH]3)nc12			CD-1 mouse, male	oral, 5 mg/kg, 7 days dosing, one day after last dose		testis weight	0.11 g
C[C@H]1C[C@H]2CSC(N)=N[C@@]2(c2nc(NC(=O)c3ccc(OC(F)F)cn3)cs2)CO1		measured: Aβx-40	healthy adults, plasma	200 mg single dose, 24 h post-dose	baseline: placebo	percent change from baseline	-69.7%
[Cl-].[Cl-].[Pt+2].[Ru+2].c1ccc(-c2nc3ccccc3nc2-c2ccccn2)nc1.c1cnc2c(c1)ccc1cccnc12.c1cnc2c(c1)ccc1cccnc12		chloride substitution, UV-vis kinetics	aqueous buffer	pH 7.2, 35 °C, second substitution step, with: thiourea		activation free energy	19.6 ± 0.478 kcal/mol
CC(C)n1c(C2CCNCC2)nc2c([N+](=O)[O-])c(Br)c(Br)cc21		measured: blasts	AML patients IDH mutated, bone marrow	dose not given, all doses		minimum change from baseline	-99%
N#Cc1ccc2c(-c3ccncc3)c(-c3ccc(F)cc3)nn2c1		kinase binding, competitor, MIB/MS competition, measured: SSK2	Candida albicans cell lysate	1 µM	baseline: DMSO	log2 fold change	-0.0627
C=CCn1c(=O)c2cnc(Nc3ccc(N4CCN(C)CC4)cc3)nc2n1-c1ccc2c(n1)[C@@](O)(CC)CC2			CB17 SCID mice, 22Rv1 xenograft	oral, 80 mg/kg, day 19, 5 d on 2 d off, 3 cycles	baseline: control	tumour growth inhibition	38.2%
Cc1cn([C@@H]2O[C@H](CO)[C@@H](O)[C@H]2O)c(=O)nc1N	OCI-Ly1			1 µM, 120 h		viability	98.4%
N#CCC1CCN(c2nc(Nc3ccc(N4CCC(O)CC4)cc3)c3c(=O)[nH]ncc3n2)CC1		Olink multiplex	human, serum	80 mg, day 29, unit not given	baseline: baseline	osteopontin level change	-1.39
Cc1nc(-c2ccc(OCC(C)C)c(C#N)c2)sc1C(=O)O			mouse, acute hyperuricaemia model, serum	oral, 2 mg/kg	baseline: vehicle model	serum uric acid decrease	96.2%
CN(C)C(=O)c1cc2cnc(Nc3ccc(N4CCNCC4)cn3)nc2n1C1CCCC1		RNA-seq GSEA, measured: HALLMARK_MITOTIC_SPINDLE	MB002 tumour	concentration not given, in vivo	baseline: vehicle, direction not given	normalized enrichment score	1.78
N#Cc1ccc2c(c1)[C@H]1CCCN(C(=O)c3ccc4[nH]cnc4c3)[C@H]1C2			T2DM patients with overweight or obesity, plasma	oral, 240 mg, day 15 (360 h), multiple dosing, mean		plasma 1,5-anhydroglucitol	10.5 µg/mL
NC(=O)c1cnc2[nH]ccc2c1N[C@@H]1[C@@H]2CC3C[C@H]1C[C@@](O)(C3)C2		flow cytometry	Japanese healthy men, blood	oral, 30 mg twice daily, 72 h after day 7 dose	baseline: baseline	CD4+ effector T-cell change	0.02%
CC(C)NCC(O)c1ccc(O)c(O)c1 (stereo not drawn)			ventricular cardiomyocytes, C57BL/6 mouse	dose not given, 0.456 s		sarcomere length	1.68 µm
Cc1cc(C)c(CNC(=O)c2cc(Cl)c3c(c2C)O[C@@](C)([C@H]2CC[C@H](N(C)C)CC2)O3)c(=O)[nH]1		IWG criteria, CR or PR or SD	relapsed/refractory PTCL-NOS patients	dose not given		disease control rate	62%
O=C(O)CSc1nnc(Br)n1-c1ccc(C2CC2)c2ccccc12			mouse, chronic hyperuricaemia model, serum	dose not given		serum creatinine	35.4 µM and 61.8 µM and 33.8 µM and 34.6 µM and 44.8 µM and 54.4 µM
C[C@H](Oc1ccc(Br)cc1-c1ccon1)C(=O)O		response peak	human, tibialis anterior muscle	800 mg, 30 Hz+30 s		difference from placebo	5.37%
COc1cc(-c2ccccc2)ncc1C(=O)Nc1ccc2c(=O)[nH]c(-c3ccc(C(C)(C)O)cc3)nc2c1		RNA-seq GSEA, measured: FALLER_ENTEROCYTE_PRO_MOUSE	organoids, small intestinal, Apc Q1405X, mouse	dose not given, knockout organoids	baseline: DMSO, direction not given	normalized enrichment score	-1.97
CC(C)(O)c1coc(S(=O)(=O)NC(=O)c2cc3ccccc3n2Cc2ccc(C3CC3)c3ccccc23)c1			male mouse, acute hyperuricaemia model, serum	oral, 2 mg/kg, 4 h		serum uric acid	327 ± 64.9 µM
[Cl-].[Cl-].[Pt+2].[Ru+2].c1ccc(-c2nc3cc4ccccc4cc3nc2-c2ccccn2)nc1.c1cnc2c(c1)ccc1cccnc12.c1cnc2c(c1)ccc1cccnc12				concentration not given, second substitution step, with: L-methionine		activation enthalpy	6.45 ± 0.478 kcal/mol
N=C(N)NCCC[C@H](NC(=O)[C@H](CCCNC(=N)N)NC(=O)[C@H](CCCCN)NC(=O)[C@H](CCC(N)=O)NC(=O)[C@H](CCCCN)NC(=O)[C@H](Cc1ccc(O)cc1)NC(=O)[C@@H](N)CCCCN)C(=O)N[C@@H](CO)C(=O)N[C@@H](Cc1ccc(O)cc1)C(=O)N[C@@H](CCCCN)C(=O)O			dentin hypersensitivity patients	10 µg/tooth, day 36 post-study visit, two teeth per subject, unit not given	baseline: baseline	VAS change	-19 ± 18
Cc1n[nH]c2ccc(-c3cc(OC[C@@H](N)Cc4ccccc4)cnc3-c3ccoc3)cc12		kinase binding, competitor, MIB/MS competition, measured: PKH2	Candida albicans cell lysate	100 nM	baseline: DMSO	log2 fold change	-0.165
c1ccc(-c2cc(-c3ccccc3)n(Cn3ccnc3)n2)cc1			rat, STZ-nicotinamide diabetic	75 mg/kg, 264 h, full-thickness excision wound		wound size	15.3 mm
C[C@H]1O[C@@H](O[C@H]2CC[C@@]3(C)[C@@H](CC[C@]4(C)[C@@H]3C=C[C@]35OC[C@@]6(CCC(C)(C)C[C@H]63)[C@@H](O)C[C@]54C)[C@]2(C)CO)[C@H](O)[C@@H](O[C@@H]2O[C@H](CO)[C@@H](O)[C@H](O)[C@H]2O)[C@H]1O			chronic-plus-binge ethanol mice, plasma	oral, 10 mg/kg/day for 7 d, 168 h		γ-GT activity	22.4 U/L and 27.7 U/L and 24.6 U/L and 19.7 U/L and 33.3 U/L and 23.5 U/L and 21.3 U/L and 36.7 U/L
C[C@]12O[C@H](C[C@]1(O)CO)n1c3ccccc3c3c4c(c5c6ccccc6n2c5c31)CNC4=O	OCI-Ly1			1 µM, 120 h		viability	14.3%
CCCOc1ccc(-c2ccc(C#N)cc2)cc1		proteomics, measured: Snca	rat placenta	concentration not given, uterine perfusion, all three doses		protein level	decreased
Cc1cc([C@H]2C[C@H]3[C@@H](CF)SC(N)=N[C@@]3(c3ccc(F)cc3F)CO2)on1		measured: Aβx-40	wild-type mouse, brain	subcutaneous, 30 mg/kg, 9 h		brain Aβ40 level	2.56 ng/g
CC(C)C[C@H](NC(=O)[C@H](CC(C)C)NC(=O)[C@H](Cc1c[nH]c2ccccc12)NC(=O)[C@H](CCC(=O)O)NC(=O)[C@@H](NC(=O)[C@H](Cc1ccccc1)NC(=O)[C@H](CCC(=O)O)NC(=O)[C@H](CCCCNC(=O)COCCOCCNC(=O)COCCOCCNC(=O)CC[C@H](NC(=O)CCCCCCCCCCCCCCCCCCC(=O)O)C(=O)O)NC(=O)[C@H](C)NC(=O)[C@H](CCCCN)NC(=O)[C@H](CCCCN)NC(=O)[C@H](CCC(=O)O)NC(=O)[C@H](CC(=O)O)NC(=O)[C@H](CC(C)C)NC(=O)[C@H](Cc1ccc(O)cc1)NC(=O)[C@H](CCCCN)NC(=O)[C@H](CO)NC(=O)[C@H](Cc1ccc(O)cc1)NC(=O)[C@H](CC(=O)O)NC(=O)[C@H](CO)NC(=O)[C@@H](NC(=O)[C@H](Cc1ccccc1)NC(=O)[C@@H](NC(=O)CNC(=O)[C@H](CCC(N)=O)NC(=O)C(C)(C)NC(=O)[C@@H](N)Cc1c[nH]cn1)[C@@H](C)O)[C@@H](C)O)C(C)C)C(=O)N[C@@H](CCC(=O)O)C(=O)NCC(=O)NCC(=O)N1CCC[C@H]1C(=O)N[C@@H](CO)C(=O)N[C@@H](CO)C(=O)NCC(N)=O			human	dose not given, day 134	baseline: placebo	VAS hunger change	decreased

Repeated from above:
Structure (SMILES)	target or system	assay	system	setting	how to read	quantity	result
N#Cc1ccc2c(-c3ccncc3)c(-c3ccc(F)cc3)nn2c1		kinase binding, competitor, MIB/MS competition, measured: SSK2	Candida albicans cell lysate	1 µM	baseline: DMSO	log2 fold change	-0.0627
C[C@H]1O[C@@H](O[C@H]2CC[C@@]3(C)[C@@H](CC[C@]4(C)[C@@H]3C=C[C@]35OC[C@@]6(CCC(C)(C)C[C@H]63)[C@@H](O)C[C@]54C)[C@]2(C)CO)[C@H](O)[C@@H](O[C@@H]2O[C@H](CO)[C@@H](O)[C@H](O)[C@H]2O)[C@H]1O			chronic-plus-binge ethanol mice, plasma	oral, 10 mg/kg/day for 7 d, 168 h		γ-GT activity	22.4 U/L and 27.7 U/L and 24.6 U/L and 19.7 U/L and 33.3 U/L and 23.5 U/L and 21.3 U/L and 36.7 U/L
Cc1nc(-c2ccc(OCC(C)C)c(C#N)c2)sc1C(=O)O			mouse, acute hyperuricaemia model, serum	oral, 2 mg/kg	baseline: vehicle model	serum uric acid decrease	96.2%
